Results collected from several papers.
Each line is one published result; not all experiments were run side by side. Numbers after ± are the reported error.
Organism: Plasmodium falciparum

Compound | test | test system | setting | IC50
O[C@H](CNCCNC(c1ccccc1)c1ccccc1)c1cc(Cl)cc2c1-c1ccc(Cl)cc1C2 | – | 3D7 | 48 h | 0.008 ± 0.0003 µM
Cc1ccc(S(=O)(=O)n2cc3c4c2C(=O)C(NCCc2ccc(O)cc2)=CC4=NCC3)cc1 | parasite growth, SYBR Green | DD2 | blood stage | 0.814 µM
CCN(CC)CCCC(C)Nc1ccnc2cc(Cl)ccc12 (stereo not drawn) | parasite growth | NF54, artemisinin-sensitive | 72 h | 0.0116 ± 0.00197 µM
O=C1C(NCCc2ccc(O)cc2)=CC2=NCCc3c(Br)[nH]c1c32 | parasite growth, SYBR Green | DD2 | blood stage | 4.44 µM
CC(F)(F)CCCNC[C@@H](O)c1cc(Cl)cc2c1-c1ccc(Cl)cc1C2 | parasite growth | Plasmodium falciparum 3D7, 3D7 | 48 h | 0.0051 ± 0.0009 µM
O=C1C(NCCc2ccc(O)c(Br)c2)=CC2=NCCc3c[nH]c1c32 | parasite growth, SYBR Green | DD2 | blood stage | 0.498 µM
CC1=N[C@H](C)Cc2c(-c3ccc4ccccc4c3)ccc(O)c21 | asexual parasite proliferation, SYBR Green I fluorescence | 7G8 | – | 0.343 ± 0.054 µM
COc1cncc(-c2cc(F)cc(CNC(=O)c3cc(N4CC[C@@](C#N)(C5CC5)C4=O)cc(C)n3)c2)c1 | parasite growth | conditional knockdown control line | 72 h, with: 12.5 nM anhydrotetracycline | 0.32 µM
CCOC(=O)CCCc1cccc2c(-c3ccc(Oc4ccccc4)cc3)ccnc12 | parasite growth, inhibitor, SYBR Green I | 3D7 | – | 1.17 µM
COc1ccc(-c2csc(C(=O)NOCCCCCC(=O)NO)n2)cc1 | asexual blood-stage growth, [3H]hypoxanthine uptake | 3D7 | 72 h | 0.05 µM
Cc1ccc2c(c1)C1CC(C)(N2)c2c(C)nc3ccc(C)cc3c21 (stereo not drawn) | parasite growth, inhibitor, SYBR Green I | 3D7 | – | 0.258 µM
COCCN(C)CC(=O)NC(Cc1ccc(-c2ccccc2)cc1)B(O)O (stereo not drawn) | [3H]-hypoxanthine incorporation | K1, chloroquine-resistant | – | 0.141 ± 0.102 µM
CCNCC#CCNc1ccnc2cc(Cl)ccc12 | parasite growth, LDH | 3D7 | – | 0.022 µM
COC1=CC2=NCCc3c[nH]c(c32)C1=O | parasite growth, SYBR Green | W2 | blood stage | 3.47 µM
COc1cccc2c(-c3ccc(O)c4c3CC(C)(C)N=C4)ccc(OC(C)C)c12 | asexual parasite proliferation, SYBR Green I fluorescence | clinical isolate SB_05, Mozambique | – | 0.4646 ± 0.0045 µM
O=C(CCCCCONC(=O)c1nc(-c2ccc(Cl)cc2)cs1)NO | asexual blood-stage growth, [3H]hypoxanthine uptake | 3D7 | 72 h | 0.17 µM
COc1cc2c(c(OC)c1)C(C)=[N+](c1ccc(OC)c3c(OC)cc(C)cc13)[C@@H](C)C2 | asexual parasite proliferation, SYBR Green I fluorescence | K1 | – | 0.626 ± 0.041 µM

Compound | test | test system | setting | IC50
C[C@@H]1C(=O)O[C@@H](C)/C=C/C=C\[C@@H](C)[C@@H]2C=C[C@@H]3C[C@]4(C)O[C@@H]4[C@@H](C)[C@H]3[C@@H]2C(=O)C(Cl)(Cl)C1=O | parasite growth, ELISA | 3D7 | blood stage | 0.062 µM
COc1ccc(CCNC2=CC3=[N+](C)CCc4c[nH]c(c43)C2=O)cc1 | parasite growth, SYBR Green | W2 | blood stage | 0.0993 µM
Cc1cc(N2CCC(CO)(C3CC3)C2=O)cc(C(=O)NCc2cc(F)cc(-c3cnn(C)c3)c2)n1 (stereo not drawn) | parasite growth | cPRS conditional knockdown line | 72 h, with: 12.5 nM anhydrotetracycline | 0.034 µM
COc1cccc2c(-c3ccc(O)c4c3CCN=C4)ccc(OC(C)C)c12 | asexual parasite proliferation, SYBR Green I fluorescence | HB3 | – | 0.409 ± 0.013 µM
O=C(CCCCCONC(=O)c1nc(-c2ccc(N3CCCC3)cc2)cs1)NO | asexual blood-stage growth, [3H]hypoxanthine uptake | 3D7 | 72 h | 0.08 µM
COc1cc(C)c(-c2ccc(O)c3c2C[C@@H](C)N[C@@H]3C)c2cccc(O)c12 (single isomer, unassigned) | asexual parasite proliferation, SYBR Green I fluorescence | K1 | – | 0.355 ± 0.075 µM
O=C1C(=O)c2[nH]cc3c2C(=C1Cl)NCC3 | parasite growth, SYBR Green | DD2 | blood stage | 7.29 µM
COC(=O)C1=CO[C@@H](C)[C@@H]2Cn3ccc4c5ccccc5nc-4c3C[C@H]12 | growth | 3D7 | 72 h | 0.178 ± 0.078 µM
COc1cccc2c(-c3ccc4c(c3O)[C@@H](C)N[C@H](C)C4)c(CO)cc(OC)c12 | asexual parasite proliferation, SYBR Green I fluorescence | Dd2 | – | 0.0162 ± 0.0048 µM
Cc1cc(N2CC[C@@](C#N)(C3CC3)C2=O)cc(NC(=O)Cc2ccccc2)n1 | parasite growth | conditional knockdown control line | 120 h, with: 12.5 nM anhydrotetracycline | 0.052 µM
COc1cc(O)c(-c2cc(-c3cc(-c4c(O)cc5c(c4OC)[C@H](C)N[C@H](C)C5)c4cc(C)cc(OC)c4c3O)c(O)c3c(OC)cc(C)cc23)c2c1[C@H](C)N[C@H](C)C2 | asexual parasite proliferation, SYBR Green I fluorescence | K1 | – | 0.13 ± 0.019 µM
O=C(CCCCCONC(=O)c1nc(-c2ccc(O)cc2)cs1)NO | asexual blood-stage growth, [3H]hypoxanthine uptake | 3D7 | 72 h | 0.02 µM
Oc1ccc(-c2ccc(O)c3ccccc23)c2c1C=NCC2 | parasite growth, SYBR Green | NF54 | blood stage | 0.744 µM
Cc1nc2ccc(F)cc2c2c1C1(C)CC2c2cc(F)ccc2N1 (stereo not drawn) | parasite growth, inhibitor, SYBR Green I | 3D7 | – | 0.353 µM
C[N+]1=C2C=C(NCCc3c[nH]c4ccccc34)C(=O)c3[nH]cc(c32)CC1 | parasite growth, SYBR Green | W2 | blood stage | 0.0313 µM
N[C@H]1C[C@@H](C(=O)O)CC1=C(C(F)(F)F)C(F)(F)F | parasite growth, SYBR Green | D6 | blood stage | > 10 µg/mL

A few entries again:
Compound | test | test system | setting | IC50
COc1cccc2c(-c3ccc4c(c3O)[C@@H](C)N[C@H](C)C4)c(CO)cc(OC)c12 | asexual parasite proliferation, SYBR Green I fluorescence | Dd2 | – | 0.0162 ± 0.0048 µM
Cc1cc(N2CC[C@@](C#N)(C3CC3)C2=O)cc(NC(=O)Cc2ccccc2)n1 | parasite growth | conditional knockdown control line | 120 h, with: 12.5 nM anhydrotetracycline | 0.052 µM
COCCN(C)CC(=O)NC(Cc1ccc(-c2ccccc2)cc1)B(O)O (stereo not drawn) | [3H]-hypoxanthine incorporation | K1, chloroquine-resistant | – | 0.141 ± 0.102 µM
